Measurements gathered from unrelated publications.
Compare with care: the assays were run in different laboratories. Values joined by “and” are separate records of one study, mostly repeats; a detail may differ. ± marks the error that the study gave.

`COC1OC(C)C(OS(=O)(=O)O)C(OC2OC(C)C(OS(=O)(=O)O)C(OC3OC(C)C(OS(=O)(=O)O)C(OC4OC(C)C(OS(=O)(=O)O)C(OC5OC(C)C(OS(=O)(=O)O)C(OC6OC(C)C(OS(=O)(=O)O)C(OC7OC(C)C(OS(=O)(=O)O)C(OC8OC(C)C(OS(=O)(=O)O)C(OS(=O)(=O)O)C8O)C7O)C6O)C5O)C4O)C3O)C2O)C1O` (stereo not shown) gave a prothrombin time of 14.8 ± 0.3 s (human plasma; 128 µg/mL).
`CCCCCCCCCCCCCCCC(=O)OCC(CSC[C@H](N)C(=O)N[C@@H](CO)C(=O)N[C@@H](CCCCN)C(=O)N[C@@H](CCCCN)C(=O)N[C@@H](CCCCN)C(=O)N[C@@H](CCCCN)C(=O)NCCCCCC(=O)N[C@@H](CCCCN)C(=O)N[C@@H](CC(C)C)C(=O)N[C@H](C(=O)N[C@@H](Cc1ccccc1)C(=O)N[C@@H](Cc1ccccc1)C(=O)N[C@@H](Cc1ccc2ccccc2c1)C(=O)O)C(C)C)OC(=O)CCCCCCCCCCCCCCC` (stereo partly shown): “amyloid plaque load” 0.0783 and 0.182 and 0.476 and 0.000183 (thioflavin S staining; APP/PS1 transgenic mouse, hippocampus; intrahippocampal, unit not given; relative to: injected over adjacent side).
`COC1OC(C)C(OC2OC(C)C(O)C(OC3OC(C)C(OC4OC(C)C(O)C(OC5OC(C)C(OC6OC(C)C(O)C(OC7OC(C)C(OC8OC(C)C(O)C(OC9OC(C)C(OC%10OC(C)C(O)C(OC%11OC(C)C(O)C(OS(=O)(=O)O)C%11OS(=O)(=O)O)C%10OS(=O)(=O)O)C(OS(=O)(=O)O)C9OS(=O)(=O)O)C8OS(=O)(=O)O)C(OS(=O)(=O)O)C7OS(=O)(=O)O)C6OS(=O)(=O)O)C(OS(=O)(=O)O)C5OS(=O)(=O)O)C4OS(=O)(=O)O)C(OS(=O)(=O)O)C3OS(=O)(=O)O)C2OS(=O)(=O)O)C(OS(=O)(=O)O)C1OS(=O)(=O)O` (stereo not shown) — result for “prothrombin time prolongation”: 1 fold (human plasma; 128 µg/mL; relative to: control).
`C[C@@H](Nc1c(-c2c(F)cc(C#N)cc2F)c(Cl)nc2ncnn12)C(C)(C)C` gave a reduction of roughly 50% (immunoblot, refers to: insoluble AT8 phospho-tau; male PS19 tau transgenic mice, brain; intraperitoneal, 3 mg/kg twice weekly, 3 months; relative to: vehicle).
`CC(C)NCC(SS(=O)(=O)O)c1ccccc1` (stereo not shown): “liver weight decrease” 31% (Swiss Webster mice, Schistosoma mansoni infected; 100 mg/kg; relative to: vehicle control).
`COC1OC(C)C(OS(=O)(=O)O)C(OC2OC(C)C(OS(=O)(=O)O)C(OC3OC(C)C(OS(=O)(=O)O)C(OC4OC(C)C(OS(=O)(=O)O)C(OC5OC(C)C(OS(=O)(=O)O)C(OS(=O)(=O)O)C5OS(=O)(=O)O)C4OS(=O)(=O)O)C3OS(=O)(=O)O)C2OS(=O)(=O)O)C1OS(=O)(=O)O` (stereo not shown) — result for “prothrombin time prolongation”: 1 fold (human plasma; 128 µg/mL; relative to: control).
`Nc1nc2cc(CC[C@H]3C[C@@H](n4ccc5c(N)ncnc54)[C@H](O)[C@@H]3O)ccc2cc1Br` gave a tumour volume of 2030 ± 376 mm3 (NCI-H1048 xenograft, mouse; 1.0 mg/kg/day, day 28).
Under “fluorescence signal ratio”, `CC(C)C[C@H](NC(=O)[C@H](CC(=O)O)NC(=O)CNC(=O)[C@@H](N)CCCNC(=N)N)C(=O)N[C@@H](C)C(=O)N[C@H](C(=O)N[C@@H](CC(C)C)C(=O)N[C@@H](CCCNC(=N)N)C(=O)N[C@@H](CCC(N)=O)C(=O)N[C@@H](CC(C)C)C(=O)N[C@@H](C)C(=O)N[C@@H](CCC(N)=O)C(=O)N[C@@H](CCC(=O)O)C(=O)N[C@@H](CC(=O)O)C(=O)NCC(=O)N[C@H](C(=O)N[C@H](C(=O)NCC(=O)N[C@H](C(=O)N[C@@H](CCCNC(=N)N)C(=O)NCCOCCOCCOCCOCCOCCOCCOCCOCCOCCOCCOCCOCCC(=O)N[C@@H](CS)C(N)=O)C(C)C)C(C)C)C(C)C)[C@@H](C)O` is recorded as 0.73 and 180 and 6.12 (ex vivo NIR imaging; NOD/SCID mice, xenograft, H460 xenograft; intravenous, 30 µg, 24 h; relative to: spleen).
`C[n+]1ccc(/C=N/NC(=O)c2cncc(C(=O)N/N=C/c3cc[n+](C)c4ccccc34)n2)c2ccccc21` has a ΔTm of 0.8 ± 0.1 °C (hp2 hairpin duplex DNA; FRET melting; 1 µM).
With `CC(CCC(=O)NCc1ccc(C(=O)NO)cc1)C1CCC2C3C(O)CC4CC(O)CCC4(C)C3CCC12C` (stereo not shown) the relative abundance was 8.84% (refers to: TUDCA; PCK rat (Pkhd1 mutant), liver; oral gavage, dose not given, 5 months; relative to: total bile acids).
`COc1cc2c(NC3CCN(C(C)C)CC3)cc(N3CCOCC3)nc2cc1OCCCN1CCCC1` — result for “log2 fold change”: 0.041 (TMT proteomics, refers to: YWHAB; 5xFAD mice, hippocampus; dose not given; relative to: wild-type mice).
With `CN1CCC[C@]1(C)/C=C/S(=O)(=O)NC(=O)Nc1c2c(cc3c1CCC3)CCC2` the IL-18 inhibition was 90.7% (human, whole blood ex vivo; 100 mg twice daily, day 1, 12 h, multiple ascending dose, with: LPS and ATP).
For `CCOC(=O)CCCCC1NCCc2ccc(O)c(O)c21` (stereo not shown), the IC50 was 5.98 µM (ABTS scavenging; 10 min, dark).
`COc1ccc(NC(=O)c2ccc3[nH]c(-c4ccc(N(C)C)cc4)nc3c2)cn1` gave a tumour volume of 351 mm3 and 1090 mm3 and 1800 mm3 and 1270 mm3 (CT26, BALB/c nude mice, subcutaneous graft; dose not given, day 11).
For `CC(C)(C)NCC(SS(=O)(=O)O)c1ccccc1` (stereo not shown), “liver weight decrease” read 23% (Schistosoma mansoni-infected mice; 400 mg/kg single, day 42, perfusion day 56; relative to: vehicle).
For `COC1CN([C@H]2CC[C@H]([C@@]3(C)Oc4c(Cl)cc(C(=O)NCc5c(SC)cc(C)[nH]c5=O)c(C)c4O3)CC2)C1`, “log2 fold change” read 2.24 (RNA-seq, refers to: CLDN4; human, whole blood; dose not given, 24 h; relative to: pretreatment baseline).
`COc1cc(O)ccc1CCC(c1ccc(O)cc1)c1cc2c(c(C)c1O)OC(c1ccc(O)cc1)CC2` (mixture of isomers) gave an amount of 361 ± 89 pg/mL blood (refers to: LTB4 isomers; human whole blood; 3 µM, with: Escherichia coli).
`OCc1ccc(C2NCCc3cc(O)c(O)cc32)o1` (stereo not shown) has an IC50 of 9.22 µM (ABTS scavenging; 10 min, dark).
The prothrombin time of `COC1OC(C)C(O)C(OC2OC(C)C(O)C(OC3OC(C)C(O)C(OC4OC(C)C(O)C(OC5OC(C)C(O)C(OC6OC(C)C(O)C(OC7OC(C)C(O)C(OC8OC(C)C(O)C(OC9OC(C)C(O)C(OS(=O)(=O)O)C9OS(=O)(=O)O)C8OS(=O)(=O)O)C7OS(=O)(=O)O)C6OS(=O)(=O)O)C5OS(=O)(=O)O)C4OS(=O)(=O)O)C3OS(=O)(=O)O)C2OS(=O)(=O)O)C1OS(=O)(=O)O` (stereo not shown) is reported as 15.1 ± 0.7 s (human plasma; 128 µg/mL).
The inhibition of `CC(=O)[O-].O.O.O.O.[Ni+2].[O-]c1ccc(Br)cc1C=NCCN1CCOCC1` is reported as 14.6% (superoxide scavenging; 80 µM).
The prothrombin time of `COC1OC(C)C(OC2OC(C)C(O)C(OC3OC(C)C(OC4OC(C)C(O)C(OS(=O)(=O)O)C4OS(=O)(=O)O)C(OS(=O)(=O)O)C3OS(=O)(=O)O)C2OS(=O)(=O)O)C(OS(=O)(=O)O)C1OS(=O)(=O)O` (stereo not shown) is reported as 15.6 ± 0.9 s (human plasma; 128 µg/mL).
`O=C(N/N=C/c1cc[n+](Cc2ccccc2)c2ccccc12)c1cccc(C(=O)N/N=C/c2cc[n+](Cc3ccccc3)c3ccccc23)c1` gave a ΔTm of 6.1 ± 0.2 °C (MYC parallel G4 DNA; FRET melting; 1 µM, DNA 0.2 µM, with: duplex DNA competitor 10 µM).
`COC1OC(C)C(OS(=O)(=O)O)C(OC2OC(C)C(OS(=O)(=O)O)C(OC3OC(C)C(OS(=O)(=O)O)C(OC4OC(C)C(OS(=O)(=O)O)C(OC5OC(C)C(OS(=O)(=O)O)C(OC6OC(C)C(OS(=O)(=O)O)C(OS(=O)(=O)O)C6OS(=O)(=O)O)C5OS(=O)(=O)O)C4OS(=O)(=O)O)C3OS(=O)(=O)O)C2OS(=O)(=O)O)C1OS(=O)(=O)O` (stereo not shown) has a prothrombin time of 15.4 ± 0.5 s (human plasma; 128 µg/mL).
The Met-enkephalin concentration of `S=C(S)OC1CC2CC1C1CCCC21` (stereo not shown) is reported as 4420 pM and 4170 pM and 3560 pM and 8510 pM and 3450 pM and 972 pM and 2250 pM and 90 pM (LC-MS/MS, refers to: extracellular Met-enkephalin; mouse striatal brain slices; 500 µM, 20 min, with: 50 mM KCl).
Under “prothrombin time prolongation”, `COC1OC(C)C(OC2OC(C)C(OS(=O)(=O)O)C(OS(=O)(=O)O)C2O)C(OS(=O)(=O)O)C1O` (stereo not shown) is recorded as 1 fold (human plasma; 128 µg/mL; relative to: control).
For `COc1cc([C@@H](O)[C@H](O)CO)ccc1O`, the IC50 was 7.16 µg/mL (ABTS scavenging).
Under “prothrombin time prolongation”, `COC1OC(C)C(OS(=O)(=O)O)C(OC2OC(C)C(OS(=O)(=O)O)C(OC3OC(C)C(OS(=O)(=O)O)C(OC4OC(C)C(OS(=O)(=O)O)C(OC5OC(C)C(OS(=O)(=O)O)C(OC6OC(C)C(OS(=O)(=O)O)C(OC7OC(C)C(OS(=O)(=O)O)C(OC8OC(C)C(OS(=O)(=O)O)C(OC9OC(C)C(OS(=O)(=O)O)C(OC%10OC(C)C(OS(=O)(=O)O)C(OC%11OC(C)C(OS(=O)(=O)O)C(OS(=O)(=O)O)C%11O)C%10O)C9O)C8O)C7O)C6O)C5O)C4O)C3O)C2O)C1O` (stereo not shown) is recorded as 0.97 fold (human plasma; 128 µg/mL; relative to: control).
`O=C(NS(=O)(=O)c1cccs1)c1cc2ccccc2n1Cc1ccc(Br)c2ccccc12` — result for “serum uric acid”: 197 ± 26.5 µM (male mouse, acute hyperuricaemia model, serum; oral, 2 mg/kg, 4 h).
